{"data": "Experimental data collected from several papers", "note": "Numbered parts are unrelated; each lists some results of a single study. Substitutions count along the parent as printed."}
{"data": "Series 1", "target": "Prothrombin, mature alpha-thrombin (F2, Homo sapiens, UniProt P00734)", "technique": "aptamer microarray, sandwich", "form": "DNA with 2'F-ANA", "sample": "in vitro", "concentration": "200 nM", "setting": "whole 15-mer aptamer, many near background", "with": "Cy3 exosite-II aptamer, 400 nM", "direction": "higher = stronger binding", "sequence": "GGTTGGTGTGGTTGG"}
{"Modification": "2'F-ANA at 1 2 3 5 6 7 8 13 14 15", "mean fluorescence intensity [a.u.]": 45.1}
{"Modification": "2'F-ANA at 1 2 9 11 12 13 15", "mean fluorescence intensity [a.u.]": 231}
{"Modification": "2'F-ANA at 1 2 3 5 6 7 8 9 10 12 15", "mean fluorescence intensity [a.u.]": 80.3}
{"Modification": "2'F-ANA at 1 2 4 7 8 10 11 12 13 14", "mean fluorescence intensity [a.u.]": 47.2}
{"Modification": "2'F-ANA at 1 3 6 12 14", "mean fluorescence intensity [a.u.]": 108}
{"Modification": "2'F-ANA at 3 5 9 10 11 14 15", "mean fluorescence intensity [a.u.]": 52.1}
{"Modification": "2'F-ANA at 2 4 5 6 9 11 12 13 15", "mean fluorescence intensity [a.u.]": 74.8}
{"Modification": "2'F-ANA at 1 2 3 5 7 8 9 10 11 12 15", "mean fluorescence intensity [a.u.]": 51.4}
{"Modification": "2'F-ANA at 1 3 5 6 7 8 9 14", "mean fluorescence intensity [a.u.]": 59.6}
{"Modification": "2'F-ANA at 5 9 12 13 14", "mean fluorescence intensity [a.u.]": 42.2}
{"Modification": "2'F-ANA at 1 3 5 6 8 11 13 14 15", "mean fluorescence intensity [a.u.]": 51.2}
{"Modification": "2'F-ANA at 1 4 5 7 11 15", "mean fluorescence intensity [a.u.]": 52.4}
{"Modification": "2'F-ANA at 2 5 6 8 9 11 12 14 15", "mean fluorescence intensity [a.u.]": 48.5}
{"Modification": "2'F-ANA at 1 3 4 6 7 9 12 13 15", "mean fluorescence intensity [a.u.]": 230}
{"Modification": "2'F-ANA at 1 2 4 5 7 8 9 12 13", "mean fluorescence intensity [a.u.]": 74.7}
{"Modification": "2'F-ANA at 1 2 3 4 5 6 7 8 10 11", "mean fluorescence intensity [a.u.]": 55}
{"Modification": "2'F-ANA at 1 2 5 9 10 11 12 13", "mean fluorescence intensity [a.u.]": 57.4}
{"Modification": "2'F-ANA at 2 4 6 9 10 11 12 13 14", "mean fluorescence intensity [a.u.]": 62.3}
{"Modification": "2'F-ANA at 2 4 7 9 10 11 12 14 15", "mean fluorescence intensity [a.u.]": 89.3}
{"Modification": "2'F-ANA at 4 5 6 7 9 10 12 13 15", "mean fluorescence intensity [a.u.]": 48.1}
{"Modification": "2'F-ANA at 2 3 4 5 6 8 10 13 15", "mean fluorescence intensity [a.u.]": 49.9}
{"Modification": "2'F-ANA at 1 2 3 6 8 9 10 12 13 15", "mean fluorescence intensity [a.u.]": 77.5}
{"Modification": "2'F-ANA at 2 3 5 7 10", "mean fluorescence intensity [a.u.]": 56.3}
{"Modification": "2'F-ANA at 1 2 5 12", "mean fluorescence intensity [a.u.]": 127}
{"Modification": "2'F-ANA at 3 10 11", "mean fluorescence intensity [a.u.]": 646}
{"data": "Series 2", "target": "CCNB2, cyclin fold, Cln2 fusion (human)", "technique": "yeast growth competition, sequencing", "sample": "yeast", "setting": "weak parent motif", "reference": "not given", "direction": "higher = stronger binding", "starting sequence": "HASPIN docking peptide (human); ASLRSVLFGLMNS; partner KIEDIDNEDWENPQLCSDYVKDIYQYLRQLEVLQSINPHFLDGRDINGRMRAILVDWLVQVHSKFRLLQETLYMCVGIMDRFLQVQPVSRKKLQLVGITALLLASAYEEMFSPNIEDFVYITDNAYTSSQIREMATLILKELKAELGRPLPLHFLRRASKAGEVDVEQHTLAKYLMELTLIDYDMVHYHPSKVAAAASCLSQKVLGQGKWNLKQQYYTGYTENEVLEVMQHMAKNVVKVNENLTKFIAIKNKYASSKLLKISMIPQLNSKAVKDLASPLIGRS"}
{"Change": "ASLRSVLFGLANS [M11A]", "normalised enrichment score": 1.18}
{"Change": "ASLASVLFGLMNS [R4A]", "normalised enrichment score": -0.66}
{"Change": "ASLRSVLFGLMNA [S13A]", "normalised enrichment score": -0.272}
{"Change": "ASLRSALFGLMNS [V6A]", "normalised enrichment score": 0.164}
{"Change": "ASLRAVLFGLMNS [S5A]", "normalised enrichment score": 0.634}
{"Change": "ASLRSVLFGAMNS [L10A]", "normalised enrichment score": 0.169}
{"data": "Series 3", "target": "Histone acetyltransferase KAT6A, winged helix 2, GST fusion (KAT6A, Homo sapiens, UniProt Q92794, residues 85-181)", "technique": "protein binding microarray", "form": "double-stranded DNA, one strand shown", "sample": "in vitro", "concentration": "not given", "setting": "8-mer, flanks averaged, mean of 2 arrays, mostly near background", "reference": "not given", "direction": "higher = stronger binding", "Target sequence (chain)": "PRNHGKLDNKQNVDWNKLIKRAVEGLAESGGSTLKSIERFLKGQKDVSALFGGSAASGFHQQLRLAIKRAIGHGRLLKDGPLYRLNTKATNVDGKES"}
{"Sequence": "CCGTAGAA", "E-score": -0.0575}
{"Sequence": "AATTTAGG", "E-score": 0.0523}
{"Sequence": "CGCGGTAC", "E-score": 0.0961}
{"Sequence": "AACTTTCG", "E-score": -0.101}
{"Sequence": "GTATGCAC", "E-score": 0.0846}
{"Sequence": "GGCTCGAC", "E-score": 0.105}
{"Sequence": "CAGCATGA", "E-score": -0.0978}
{"Sequence": "GCGCGGTA", "E-score": 0.0687}
{"Sequence": "CAGAGCTG", "E-score": 0.0544}
{"Sequence": "CGCTAACA", "E-score": -0.124}
{"Sequence": "AGACTGCC", "E-score": -0.0301}
{"Sequence": "ACCTCAAG", "E-score": -0.00214}
{"Sequence": "GCACGTGA", "E-score": -0.189}
{"Sequence": "TCATCGAA", "E-score": 0.0898}
{"Sequence": "AAATCTCA", "E-score": -0.0917}
{"Sequence": "GACGTCGA", "E-score": 0.0501}
{"Sequence": "AACCTCCG", "E-score": -0.00847}
{"Sequence": "CAGCCTGG", "E-score": 0.022}
{"Sequence": "CCAGACAA", "E-score": 0.0603}
{"Sequence": "CGCCATCA", "E-score": -0.204}
{"Sequence": "CAGGCTAA", "E-score": -0.0607}
{"Sequence": "AGTGGACG", "E-score": 0.0215}
{"Sequence": "ACACATAA", "E-score": -0.202}
{"Sequence": "ACCCGCGG", "E-score": 0.162}
{"Sequence": "CGGAGTAC", "E-score": -0.0339}
{"data": "Series 4", "target": "ABI1, truncated, D143A, DHFR fusion (Arabidopsis thaliana)", "technique": "DHFR PCA, deep sequencing", "sample": "yeast", "setting": "methotrexate growth selection, single substitutions", "with": "(+)-ABA 58 µM", "reference": "wild-type fitted maximum", "direction": "higher = stronger binding", "starting sequence": "PYL1, truncated, DHFR fusion (Arabidopsis thaliana); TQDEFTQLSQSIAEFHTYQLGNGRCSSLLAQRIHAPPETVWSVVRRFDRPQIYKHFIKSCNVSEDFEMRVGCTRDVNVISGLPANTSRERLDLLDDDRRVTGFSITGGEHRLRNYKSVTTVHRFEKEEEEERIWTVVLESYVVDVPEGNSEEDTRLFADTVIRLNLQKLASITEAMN"}
{"Change": "R123M", "relative binding score [%]": 81.1}
{"Change": "K168T", "relative binding score [%]": 84.7}
{"Change": "S171C", "relative binding score [%]": 81.6}
{"Change": "E64V", "relative binding score [%]": 79.1}
{"Change": "T101F", "relative binding score [%]": 99.2}
{"Change": "N165I", "relative binding score [%]": -1.98}
{"Change": "Y53T", "relative binding score [%]": 9}
{"Change": "K126C", "relative binding score [%]": 96.6}
{"Change": "L138V", "relative binding score [%]": 66.2}
{"Change": "D48V", "relative binding score [%]": -3.59}
{"Change": "H110I", "relative binding score [%]": 0.808}
{"Change": "G148L", "relative binding score [%]": 47.9}
{"Change": "M176V", "relative binding score [%]": 81.2}
{"Change": "T135Y", "relative binding score [%]": -11.6}
{"Change": "G107P", "relative binding score [%]": 6.61}
{"Change": "L94T", "relative binding score [%]": 25.1}
{"Change": "V143R", "relative binding score [%]": 3.31}
{"note": "Repeated from above (series 1):"}
{"Modification": "2'F-ANA at 2 5 6 8 9 11 12 14 15", "mean fluorescence intensity [a.u.]": 48.5}
{"Modification": "2'F-ANA at 1 3 4 6 7 9 12 13 15", "mean fluorescence intensity [a.u.]": 230}
{"Modification": "2'F-ANA at 1 2 4 5 7 8 9 12 13", "mean fluorescence intensity [a.u.]": 74.7}
{"Modification": "2'F-ANA at 1 2 3 4 5 6 7 8 10 11", "mean fluorescence intensity [a.u.]": 55}
{"Modification": "2'F-ANA at 1 2 5 9 10 11 12 13", "mean fluorescence intensity [a.u.]": 57.4}
{"Modification": "2'F-ANA at 2 4 6 9 10 11 12 13 14", "mean fluorescence intensity [a.u.]": 62.3}
{"Modification": "2'F-ANA at 2 4 7 9 10 11 12 14 15", "mean fluorescence intensity [a.u.]": 89.3}
